Assay results gathered from unrelated publications.
Numbered parts are unrelated; each lists some results of a single study. Positions count from the first letter of the parent shown.

Sample 1 — technique: DHFR PCA, deep sequencing; matrix: yeast; added: (+)-ABA 200 µM; baseline: wild-type fitted maximum; direction: higher = stronger binding; measurement: relative binding score
Target: ABI1, truncated, D143A, DHFR fusion (Arabidopsis thaliana)
Notes: methotrexate growth selection, single substitutions
Starting sequence: PYL1, truncated, DHFR fusion (Arabidopsis thaliana); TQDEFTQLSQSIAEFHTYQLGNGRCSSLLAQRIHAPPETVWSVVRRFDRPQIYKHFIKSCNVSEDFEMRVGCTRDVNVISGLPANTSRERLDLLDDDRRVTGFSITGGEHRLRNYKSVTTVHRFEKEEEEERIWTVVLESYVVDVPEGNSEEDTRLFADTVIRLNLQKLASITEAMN
T86V: 92.4%
L112S: -12.6%
V43Q: 70.9%
V40D: -45.7%
Y18L: 82.9%
D92N: 82.4%
T101I: 106%
G148P: 71.7%
F56V: 18.5%
S26A: 99.9%
V143D: 5.12%
Q7H: 96.6%

Sample 2 — technique: aptamer microarray, sandwich; molecule type: DNA with 2'F-ANA; matrix: in vitro; concentration: 200 nM; added: Cy3 exosite-II aptamer, 400 nM; direction: higher = stronger binding; measurement: mean fluorescence intensity; oligonucleotide: GGTTGGTGTGGTTGG
Target: Prothrombin, mature alpha-thrombin (F2, Homo sapiens, UniProt P00734)
Notes: whole 15-mer aptamer, many near background
2'F-ANA at 1 5 8 15: 61.4 a.u.
2'F-ANA at 1 2 4 6 8 10 11 14: 47.9 a.u.
2'F-ANA at 1 2 5 6 7 9 12 13: 76.7 a.u.
2'F-ANA at 3 6 8 9 10 11: 481 a.u.
2'F-ANA at 3 4 5 9 10 12 13 14 15: 48 a.u.
2'F-ANA at 2 3 6 7 8 10 11 12 14: 275 a.u.
2'F-ANA at 3 5 6 8 10 11 12 14: 66.3 a.u.
2'F-ANA at 2 4 5 9 10 11 13 14: 45.8 a.u.

Sample 3 — target: CCNE1, cyclin fold, Cln2 fusion (human); technique: yeast growth competition, sequencing; matrix: yeast; notes: weak parent motif; baseline: not given; direction: higher = stronger binding; measurement: normalised enrichment score
Starting sequence: ITGB3BP docking peptide (human); MPVKRSLKLDGLL
MPVKRALKLDGLL [S6A]: 0.706
MPVKRSLALDGLL [K8A]: 0.649
MPVKRSLKLDALL [G11A]: -0.0737
MPVKKSLKLDGLL [R5K]: 0.117
MAVKRSLKLDGLL [P2A]: 1.13
MPAKRSLKLDGLL [V3A]: 0.987
MPVKRSLKLAGLL [D10A]: 0.501
MPVKRSLKLDGLA [L13A]: 0.502

Further values, each from its own experiment
PhoQ, residues 284 288 289 292 302 303 TTSMTC — fold induction (PhoP, residues 12 14 15 18 19 MHTVL (Escherichia coli, UniProt P23836); Sort-seq, measured: YFP reporter; E. coli; PhoQ-PhoP variant library, added: 10 µM Mg2+; baseline: high Mg2+ state, higher = stronger signaling): 9.29

A few entries again (sample 2):
2'F-ANA at 3 4 5 9 10 12 13 14 15: 48 a.u.
2'F-ANA at 2 3 6 7 8 10 11 12 14: 275 a.u.
